{"data": "Results pooled from the literature", "note": "Each line is one published result; not all experiments were run side by side."}
{"SMILES": "O=S(=O)(N[C@H]1CCO[C@@H](C2c3ccccc3CCc3ccccc32)C1)c1ccc(OC(F)(F)F)cc1", "host": "mouse", "matrix": "plasma", "route": "oral", "dose": "30 mg/kg", "Cmax": "1150 ng/mL"}
{"SMILES": "COc1ccc2nc(NC(c3ccc(O)cc3)P(=O)(OC)OC)sc2c1 (stereo not shown)", "host": "mouse", "matrix": "plasma", "route": "intravenous", "dose": "10 mg/kg", "Cmax": "2130 ng/mL"}
{"SMILES": "Cn1c2cc([S+](C)[O-])sc2c2cnn(Cc3cccc(N)c3)c(=O)c21 (stereo not shown)", "host": "male BALB/c mouse", "matrix": "plasma", "route": "intraperitoneal", "dose": "50 mg/kg", "setting": "single dose", "Cmax": "25800 ng/mL"}
{"SMILES": "Nc1ccc(-c2cc(Cl)c(Cl)c3[nH]c4c(c23)CN(C(=O)CO)CC4)cn1", "host": "C57BL/6 mouse", "matrix": "blood", "route": "oral", "dose": "20 mg/kg", "Cmax": "1.73 µM"}
{"SMILES": "CN[C@H](CC(C)C)C(=O)N[C@H]1C(=O)N[C@@H](CC(N)=O)C(=O)N[C@H]2C(=O)N[C@H]3C(=O)N[C@H](C(=O)N[C@H](C(=O)N[C@H](CCCNC(=N)N)C(N)=O)c4cc(O)cc(O)c4-c4cc3ccc4O)[C@H](O)c3ccc(c(Cl)c3)Oc3cc2cc(c3O[C@@H]2O[C@H](CO)[C@@H](O)[C@H](O)[C@H]2O[C@H]2C[C@](C)(N)[C@H](O)[C@H](C)O2)Oc2ccc(cc2Cl)[C@H]1O", "host": "female CD-1 mouse", "matrix": "plasma", "route": "intravenous", "dose": "1 mg/kg", "setting": "single dose", "Cmax": "3270 ng/mL"}
{"SMILES": "COc1cnc2cccc(N3CCc4c(cc(Cn5ccnc5)cc4-c4cn(C)nc4C(F)(F)F)C3=O)c2c1", "host": "male CD-1 mouse", "matrix": "plasma", "route": "intraperitoneal", "dose": "10 mg/kg", "Cmax": "8680 ng/mL"}
{"SMILES": "Cc1cc(NC(=O)[C@H](O)c2cc(F)cc(F)c2)ccc1-c1cnc(N)c(C(=O)NC(C)C)c1", "host": "female nude mouse", "matrix": "plasma", "route": "oral", "dose": "3 mg/kg", "setting": "single dose", "Cmax": "373 ng/mL"}
{"SMILES": "Fc1cncc(-c2ccc3[nH]c4ncnc(N[C@H]5CC[C@H](N6CCOCC6)CC5)c4c3c2)c1", "host": "CD-1 mouse", "matrix": "plasma", "route": "oral", "dose": "10 mg/kg", "Cmax": "3330 ng/mL"}
{"SMILES": "CCC(=O)NC1CC=C(c2cc3c(Nc4cc5ncsc5cc4F)ncnc3s2)CC1 (racemic)", "host": "mouse", "matrix": "plasma", "route": "oral", "dose": "10 mg/kg", "Cmax": "2560 ng/mL"}
{"SMILES": "CC(=O)c1c(C)c2cnc(Nc3ccc(N4CCNCC4)cn3)nc2n(C2CCCC2)c1=O", "host": "mouse", "matrix": "serum", "route": "intraperitoneal", "dose": "25 mg/kg", "setting": "single dose", "Cmax": "49000 ng/mL"}
{"SMILES": "Fc1cccc(-n2cc(-c3ccccc3)nc2NCc2ccc(C(F)(F)F)c(F)c2)c1", "host": "male CD-1 mouse", "matrix": "plasma", "route": "intraperitoneal", "dose": "25 mg/kg", "setting": "single dose", "Cmax": "4960 ng/mL"}
{"SMILES": "O=C(OC(C(F)(F)F)C(F)(F)F)N1CCC(CNS(=O)(=O)c2ccc(Cl)cc2)CC1", "host": "male SCID mouse", "matrix": "brain", "route": "oral", "dose": "30 mg/kg", "Cmax": "11100 ng/mL"}
{"SMILES": "CC(=O)N1CCC=C(c2cc3c(Nc4cc5ncsc5cc4F)ncnc3s2)C1", "host": "mouse", "matrix": "plasma", "route": "intravenous", "dose": "10 mg/kg", "Cmax": "14600 ng/mL"}
{"SMILES": "N#CCCC1CCN(C(=S)c2ccc(-c3cc(Cl)ccc3Cl)o2)CC1", "host": "male BALB/c mouse", "matrix": "plasma", "route": "oral", "dose": "10 mg/kg", "Cmax": "4.55 ng/mL"}
{"SMILES": "CC[C@H](C)/C=C/C=C/C=C/C(O)=C/C(=O)C(F)(F)Cl", "host": "female C57BL/6 mouse", "matrix": "plasma", "route": "oral", "dose": "25 mg/kg", "Cmax": "17 µM"}
{"SMILES": "CCC(=O)N1CCC=C(c2cc3c(Nc4cc5ncsc5cc4F)ncnc3s2)C1", "host": "mouse", "matrix": "plasma", "route": "intravenous", "dose": "10 mg/kg", "Cmax": "6030 ng/mL"}
{"note": "For quick reference, copied from above:"}
{"SMILES": "CCC(=O)NC1CC=C(c2cc3c(Nc4cc5ncsc5cc4F)ncnc3s2)CC1 (racemic)", "host": "mouse", "matrix": "plasma", "route": "oral", "dose": "10 mg/kg", "Cmax": "2560 ng/mL"}
{"SMILES": "CC(=O)c1c(C)c2cnc(Nc3ccc(N4CCNCC4)cn3)nc2n(C2CCCC2)c1=O", "host": "mouse", "matrix": "serum", "route": "intraperitoneal", "dose": "25 mg/kg", "setting": "single dose", "Cmax": "49000 ng/mL"}
